Results pooled from the literature.
Each numbered part is a random draw from the data of one study; scales do not carry over between parts.

Sample 1 — technique: protein binding microarray; form: double-stranded DNA, one strand shown; medium: in vitro; tested at: not given; baseline: not given; direction: higher = stronger binding
Target: Histone acetyltransferase KAT6A, winged helix 2, GST fusion (KAT6A, Homo sapiens, UniProt Q92794, residues 85-181)
Notes: 8-mer, flanks averaged, mean of 2 arrays, mostly near background
Residues (chain): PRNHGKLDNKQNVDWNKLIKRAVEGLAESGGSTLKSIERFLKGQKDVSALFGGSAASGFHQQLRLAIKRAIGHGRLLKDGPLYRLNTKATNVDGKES
Oligonucleotide | E-score
AGCTGACT | 0.0799
AATCATTG | -0.0994
ACCATGTC | -0.0649
ACACGCCG | 0.0229
TACACAAA | 0.116
AGGACCCT | -0.0848
GGGATGGA | 0.00353

Sample 2 — technique: aptamer microarray, sandwich; form: DNA with 2'F-ANA; medium: in vitro; tested at: 200 nM; with: Cy3 exosite-II aptamer, 400 nM; direction: higher = stronger binding
Target: Prothrombin, mature alpha-thrombin (F2, Homo sapiens, UniProt P00734)
Notes: whole 15-mer aptamer, many near background
Oligonucleotide | mean fluorescence intensity
GGTTGGTGTGGTTGG (2'F-ANA at 1 7 9 13 14 15) | 57.7 a.u.
GGTTGGTGTGGTTGG (2'F-ANA at 7 8 12 14 15) | 250 a.u.
GGTTGGTGTGGTTGG (2'F-ANA at 2 3 5 7 8 10 12 13 14 15) | 255 a.u.
GGTTGGTGTGGTTGG (2'F-ANA at 1 2 3 4 5 6 8 9 10 13 14 15) | 65.7 a.u.

Sample 3 — technique: protein-binding microarray; form: double-stranded DNA, one strand shown; medium: in vitro; tested at: 2540 nM top; notes: 60-bp whole probe; with: salmon DNA 0.4 mg/ml; baseline: random background probes; direction: higher = stronger binding
Target: Interferon regulatory factor 3, full length, phosphomimetic (IRF3, Homo sapiens, UniProt Q14653, residues 1-427, S386D/S396D/S398D/S402D/T404D/S405D)
UniProt Q14653, sequence (whole entry, unmodified, looked up): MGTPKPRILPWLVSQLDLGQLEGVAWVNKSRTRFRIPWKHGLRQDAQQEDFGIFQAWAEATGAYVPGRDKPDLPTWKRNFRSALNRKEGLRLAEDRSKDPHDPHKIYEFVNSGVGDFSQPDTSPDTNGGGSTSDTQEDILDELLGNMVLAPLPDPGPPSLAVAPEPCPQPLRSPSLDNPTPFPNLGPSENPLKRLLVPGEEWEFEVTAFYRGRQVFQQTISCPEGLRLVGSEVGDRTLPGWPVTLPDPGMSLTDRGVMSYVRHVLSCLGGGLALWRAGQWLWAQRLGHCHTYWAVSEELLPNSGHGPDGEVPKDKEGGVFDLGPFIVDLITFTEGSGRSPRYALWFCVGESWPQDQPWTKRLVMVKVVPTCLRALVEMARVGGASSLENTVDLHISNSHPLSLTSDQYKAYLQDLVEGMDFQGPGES
Oligonucleotide | fitted relative affinity
GCCTAGCACGGTCTTCTGGACTGTTTGGTCGTGCTAGTCTTGATTCGCTTGACGCTGCTG | -0.198 z-score
GCCTAGCACTCATACCTCATCTTCCTCACTGTGCTAGTCTTGATTCGCTTGACGCTGCTG | 0.769 z-score
GCCTAGCACGACTGTCTCGGTATCGGGACGTGCTAGGTCTTGATTCGCTTGACGCTGCTG | 1.75 z-score
GCCTAGCACTTCTACTTCTCTTTTTGCTTGTGCTAGGTCTTGATTCGCTTGACGCTGCTG | 2.98 z-score

Mixed results
Molecule | target | assay | test system | conditions | scale | endpoint | value
PhoQ, residues 284 288 289 292 302 303 AGGCYF | PhoP, residues 12 14 15 18 19 SMASL (Escherichia coli, UniProt P23836) | Sort-seq, refers to: YFP reporter | E. coli | PhoQ-PhoP variant library, with: 10 µM Mg2+ | baseline: high Mg2+ state, higher = stronger signaling | fold induction | 3.46

Excerpt of the above (sample 2):
Oligonucleotide | mean fluorescence intensity
GGTTGGTGTGGTTGG (2'F-ANA at 7 8 12 14 15) | 250 a.u.
GGTTGGTGTGGTTGG (2'F-ANA at 1 2 3 4 5 6 8 9 10 13 14 15) | 65.7 a.u.
